Experimental data from different studies.
Compare with care: the assays were run in different laboratories. Values joined by “and” are separate records of one study, mostly repeats; a detail may differ. ± marks the error that the study gave. In brackets after ≈: the same amount, converted by molar mass.

| SMILES | test | test system | conditions | how to read | measurement | result |
| --- | --- | --- | --- | --- | --- | --- |
| CC1N=C(c2ccccc2F)c2cc(Nc3ccc(O)cc3)ccc2NC1=O (stereo not shown) | shake flask | PBS | 24 h, pH 7.4 | – | aqueous solubility | 198 µM (≈ 74.3 µg/mL) |
| O[C@H]1CCCN[C@@H]1CCCn1cnc2c(Cl)c(Cl)ccc21 | – | healthy human volunteers, plasma | oral, 25 mg twice daily, day 14, median | – | Tmax at steady state | 2 h |
| COc1ccc(C[C@@H]2NC(=O)[C@H]([C@@H](C)O)NC(=O)[C@@H]3[C@@H]4CCN3C(=O)[C@@H]3Cc5cn(c6ccc(F)cc56)CCCCCCN(Cc5ccc(cc5)CCNC(=O)[C@]5(C)CCCN5C2=O)C(=O)CCC(=O)N[C@@H](C)C(=O)N[C@H](CNC(=O)CCCCC[N+](C)(C)C)C(=O)N[C@@H](Cc2cccc(c2)CNC(=O)CO4)C(=O)N3)cc1 | – | fasted healthy men, plasma | oral, 300 mg single dose, 24 h, with 1800 mg Labrasol, median | – | plasma concentration | 13.3 nM |
| Cn1cc(C2=C(c3cn(C4CCN(Cc5ccccn5)CC4)c4ccccc34)C(=O)NC2=O)c2ccccc21 | – | human, cancer patients, plasma | oral, 500 mg once daily, cycle 1 day 22, added: erlotinib 150 mg daily | – | CL/F at steady state | 53.8 L/h |
| CN[C@H](CC(C)C)C(=O)N[C@H]1C(=O)N[C@@H](CC(N)=O)C(=O)N[C@H]2C(=O)N[C@H]3C(=O)N[C@H](C(=O)N[C@H](C(=O)O)c4cc(O)cc(O)c4-c4cc3ccc4O)[C@H](O)c3ccc(c(Cl)c3)Oc3cc2cc(c3O[C@@H]2O[C@H](CO)[C@@H](O)[C@H](O)[C@H]2O[C@H]2C[C@](C)(N)[C@H](O)[C@H](C)O2)Oc2ccc(cc2Cl)[C@H]1O | – | perfused placental lobule tissue | 25 µg/mL, 240 min | – | tissue concentration | 7.5 ± 1 µg/g |
| O=C(NCCS)c1cccc(C(=O)NCCS)c1 | – | male Sprague-Dawley rat, plasma | intravenous, 1 mg/kg, 3 h | – | concentration | 82.4 ng/mL |
| CCCCCCCCCCCCCCCCCC[N+](C)(C)Cc1ccccc1 | ultrafiltration | human serum | – | – | unbound fraction in blood | 0.139 |
| CCc1cccc(CC)c1N(COC)C(=O)CCl | LC-MS/MS | herbicide solution | 2 h, 4 °C, added: 365 nm UV exposure | – | remaining amount | 4.83 ± 0.15% |
| O=c1[nH]c(=O)[nH]c(=O)[nH]1 | LC-MS/MS | non-pregnant female rat, serum | oral, 1000 mg/kg/day, 10 days | – | serum concentration | 54100 ng/mL and 6000 ng/mL and 25000 ng/mL and 173000 ng/mL and 30500 ng/mL and 11100 ng/mL |
| Cc1cc(C(C#N)c2ccc(Cl)cc2)c(Cl)cc1NC(=O)c1cc(I)cc(I)c1O (stereo not shown) | HPLC, non-compartmental | Corriedale lambs, parasitized, plasma | subcutaneous, 5 mg/kg | – | MRT | 526 ± 54.7 h |
| CC(=O)N[C@H](CCCCNC(=O)C(C)F)C(=O)N[C@@H](CS)C(=O)N[C@@H](CS)C(=O)N[C@@H](CCC(=O)O)C(=O)N[C@@H](Cc1c[nH]cn1)C(=O)N[C@H](Cc1ccccc1)C(=O)N[C@@H](CCCNC(=N)N)C(=O)N[C@@H](Cc1c[nH]c2ccccc12)C(=O)N[C@@H](CS)C(=O)N[C@@H](CCCNC(=N)N)C(=O)N1CCC[C@H]1C(=O)N[C@H](C(N)=O)C(C)C (stereo partly shown) [fluorine-18 labelled] | – | nude mice, A375M xenograft, stomach | intravenous, 2 h | – | tissue uptake | 0.44 ± 0.02 %ID/g |
| COc1cc(/C=C/C(=O)CC(=O)/C=C/c2ccc(O)c(OC)c2)ccc1O | – | aqueous 0.8% PVA | 12 h, pH 6 | – | solubility | 313.6 ± 1.05 µg/mL (≈ 851 µM) |
| CCCCCOc1ccc(-c2ccc(-c3ccc(C(=O)N[C@H]4C[C@@H](O)[C@@H](O)NC(=O)[C@@H]5[C@@H](O)[C@@H](C)CN5C(=O)[C@H]([C@@H](C)O)NC(=O)[C@H]([C@H](O)[C@@H](O)c5ccc(O)cc5)NC(=O)[C@@H]5C[C@@H](O)CN5C(=O)[C@H]([C@@H](C)O)NC4=O)cc3)cc2)cc1 | population PK model | patients aged 5 to < sample A years | intravenous, 3.0 mg/kg loading, 1.5 mg/kg once daily, mean, weight-corrected | – | Vss | 0.75 L/kg |
| CC[C@H](C)[C@H](NC(=O)[C@H](C)NC(=O)[C@H](CCCCN)NC(=O)[C@H](CC(C)C)NC(=O)[C@H](C)NC(=O)[C@@H](NC(=O)[C@H](Cc1c[nH]cn1)NC(=O)[C@H](CC(C)C)NC(=O)[C@@H](NC(=O)[C@@H](NC(=O)[C@H](CCCCN)NC(=O)[C@H](CCCCN)NC(=O)[C@H](C)NC(=O)[C@H](CO)NC(=O)[C@H](CCCCN)NC(=O)[C@H](Cc1ccccc1)NC(=O)[C@@H](NC(=O)[C@H](CCCCN)NC(=O)[C@H](CC(C)C)NC(=O)[C@H](Cc1ccccc1)NC(=O)[C@H](CO)NC(=O)[C@H](CCCCN)NC(=O)[C@H](Cc1c[nH]c2ccccc12)NC(=O)[C@H](CCCCN)NC(C)=O)[C@@H](C)O)[C@@H](C)O)C(C)C)[C@@H](C)O)C(=O)N[C@@H](CO)C(=O)N[C@@H](CO)C(N)=O | RP-HPLC | Zorbax 300 SB-C18 column | 65 °C | – | retention time | 26.3 min |
| CC(C)C[C@H](NC(=O)CNC(=O)c1cc(Cl)ccc1Cl)B(O)O | – | human, plasma | oral, 4 mg, day 1, alone | – | AUC(0-last) | 907 ng·h/mL |
| c1cc2ccc3cccc4ccc(c1)c2c34 | HPLC with fluorescence detection | Wistar rat, male, feces, wet weight | oral, 4 mg/kg, 24 h collection | – | concentration in feces | 96.1 ± 25.8 ppb |

| SMILES | test | test system | conditions | how to read | measurement | result |
| --- | --- | --- | --- | --- | --- | --- |
| CS(=O)(=O)CCCn1c(Cn2c(=O)n(CC(F)(F)F)c3ccncc32)cc2cc(Cl)ccc21 | – | RSV-infected infants | concentration not given, all dose cohorts | – | patients with high aPTT | 14% |
| O=c1[nH]c(Cc2ccccn2)nc2c1cnn2C1CCOCC1 | – | male human, plasma | oral, 2 mg, single dose | – | Cmax | 18.8 nM |
| CN[C@@](C)(C[18F])C(=O)O | – | SCID mouse U87 xenograft, heart | 15 min, post injection | – | tissue uptake | 4.4 ± 1.1 %ID/g |
| C[C@H]1C(=O)O[C@@H]2CCN3CC=C(COC(=O)[C@](C)(O)[C@]1(C)O)[C@H]23 | – | human, whole blood | 1000 ng/mL, 60 min, 37 °C | – | blood-to-plasma ratio | 1.07 |
| CC(C)[C@H](NC(=O)[C@H](Cc1c[nH]c2ccccc12)NC(=O)[C@H](CCCCN)NC(=O)CNC(=O)[C@@H](NC(=O)[C@H](C)NC(=O)[C@@H]1CCCN1C(=O)[C@H](CC(N)=O)NC(=O)[C@H](Cc1c[nH]c2ccccc12)NC(=O)[C@H](Cc1c[nH]cn1)NC(=O)[C@H](Cc1c[nH]c2ccccc12)NC(=O)[C@@H](N)CCCNC(=N)N)[C@@H](C)O)C(=O)N[C@@H](Cc1c[nH]c2ccccc12)C(=O)N[C@@H](CCC(=O)O)C(=O)O | circular dichroism | phosphate buffer | pH 6.5 | – | Tm | 80.7 ± 0.1 °C |
| [123I]c1cncc(OC[C@@H]2CCN2)c1 | SPECT | human, high plasma nicotine, hippocampus | intravenous, dose not given | baseline: plasma | tissue/plasma ratio | 14 |
| NC(=O)c1nc(F)c[nH]c1=O | UV-Vis spectrophotometry | supercritical CO2 | 120 min, 318 K, 15 MPa, 743.17 kg/m^3 | – | solubility | 213 µg/mL (≈ 1360 µM) |
| CC1(C)S[C@@H]2[C@H](NC(=O)[C@@H](C(=O)O)c3ccsc3)C(=O)N2[C@H]1C(=O)O | – | rat plasma | 30 ng/mL, three freeze-thaw cycles | baseline: nominal concentration | relative error | 5% |
| CCCCCOc1ccc(-c2cc(-c3ccc(C(=O)N[C@H]4C[C@@H](O)[C@@H](O)NC(=O)[C@@H]5[C@@H](O)[C@@H](C)CN5C(=O)[C@H]([C@H](O)CC(N)=O)NC(=O)[C@H]([C@H](O)[C@@H](O)c5ccc(O)c(OS(=O)(=O)O)c5)NC(=O)[C@@H]5C[C@@H](O)CN5C(=O)[C@H]([C@@H](C)O)NC4=O)cc3)no2)cc1 | – | human children aged 6-11 years, plasma | intravenous, 3 mg/kg once daily, day 7, median | – | clearance at steady state | 0.198 mL/min/kg |
| CCNc1nc(Cl)nc(NCC)n1 | LC-MS/MS | herbicide solution | 2 h, 40 °C, added: 365 nm UV exposure | – | remaining amount | 86.2 ± 16.8% |
| Cn1nccc1Nc1nc(NCC(F)(F)F)c2nc[nH]c2n1 | – | NMRI mouse, female, uninfected, blood | intraperitoneal, 10 mg/kg | – | Tmax | 0.25 to 0.5 h |
| O=C(O)CN(CCN(CC(=O)O)CC(=O)O)CCN(CC(=O)O)CC(=O)O | – | beagle dog | intravenous, 300 µM, 90% binding threshold | – | time above binding threshold | 2.9 h |
| CN(Cc1cnc2nc(N)nc(N)c2n1)c1ccc(C(=O)N[C@@H](CCC(=O)O)C(=O)O)cc1 | – | Rho P23H/+ mouse | intravitreal, 100 pmol weekly for four doses, PND 44 | baseline: PBS | photopic b-wave amplitude | increased |
| C=CC(=O)Nc1cc(Nc2nccc(-c3cn(C)c4ccccc34)n2)c(OC)cc1N(C)CCN(C)C | – | BALB/c nude mouse, female, EGFR exon insertion xenograft | 12 days, once daily | – | maximum tolerated dose | 20 mg/kg |
| CC(=O)N[C@H](CCCCN)C(=O)N[C@H](CC(C)C)C(=O)N[C@@H](CN)C(=O)N[C@H](CO)C(=O)N[C@H](CC(C)C)C(=O)N[C@H](CC(C)C)C(=O)N[C@@H](CN)C(=O)N[C@@H](C(=O)N[C@H](CC(C)C)C(=O)N[C@H](CO)C(=O)N[C@@H](CN)C(=O)N[C@H](C)C(=O)N[C@H](C)C(=O)N[C@H](C)C(=O)N[C@H](C)C(=O)N[C@H](C)C(=O)N[C@H](CC(C)C)C(=O)N[C@@H](CN)C(=O)N[C@@H](C(=O)N[C@H](CC(C)C)C(=O)N[C@H](CC(C)C)C(=O)N[C@@H](CN)C(=O)N[C@H](C)C(=O)N[C@H](CC(C)C)C(=O)N[C@H](CO)C(=O)N[C@@H](CN)C(N)=O)[C@H](C)O)[C@H](C)O | RP-HPLC temperature profiling | – | pH 2 | baseline: random coil control | self-association parameter | 18 min |

Excerpt of the above:
| SMILES | test | test system | conditions | how to read | measurement | result |
| --- | --- | --- | --- | --- | --- | --- |
| c1cc2ccc3cccc4ccc(c1)c2c34 | HPLC with fluorescence detection | Wistar rat, male, feces, wet weight | oral, 4 mg/kg, 24 h collection | – | concentration in feces | 96.1 ± 25.8 ppb |
| NC(=O)c1nc(F)c[nH]c1=O | UV-Vis spectrophotometry | supercritical CO2 | 120 min, 318 K, 15 MPa, 743.17 kg/m^3 | – | solubility | 213 µg/mL (≈ 1360 µM) |
